Measured values pooled from the literature.
Every numbered part comes from another study and shows a few of its results, in no order.
Sequence of UniProt Q5XXA6 (whole entry, unmodified, looked up): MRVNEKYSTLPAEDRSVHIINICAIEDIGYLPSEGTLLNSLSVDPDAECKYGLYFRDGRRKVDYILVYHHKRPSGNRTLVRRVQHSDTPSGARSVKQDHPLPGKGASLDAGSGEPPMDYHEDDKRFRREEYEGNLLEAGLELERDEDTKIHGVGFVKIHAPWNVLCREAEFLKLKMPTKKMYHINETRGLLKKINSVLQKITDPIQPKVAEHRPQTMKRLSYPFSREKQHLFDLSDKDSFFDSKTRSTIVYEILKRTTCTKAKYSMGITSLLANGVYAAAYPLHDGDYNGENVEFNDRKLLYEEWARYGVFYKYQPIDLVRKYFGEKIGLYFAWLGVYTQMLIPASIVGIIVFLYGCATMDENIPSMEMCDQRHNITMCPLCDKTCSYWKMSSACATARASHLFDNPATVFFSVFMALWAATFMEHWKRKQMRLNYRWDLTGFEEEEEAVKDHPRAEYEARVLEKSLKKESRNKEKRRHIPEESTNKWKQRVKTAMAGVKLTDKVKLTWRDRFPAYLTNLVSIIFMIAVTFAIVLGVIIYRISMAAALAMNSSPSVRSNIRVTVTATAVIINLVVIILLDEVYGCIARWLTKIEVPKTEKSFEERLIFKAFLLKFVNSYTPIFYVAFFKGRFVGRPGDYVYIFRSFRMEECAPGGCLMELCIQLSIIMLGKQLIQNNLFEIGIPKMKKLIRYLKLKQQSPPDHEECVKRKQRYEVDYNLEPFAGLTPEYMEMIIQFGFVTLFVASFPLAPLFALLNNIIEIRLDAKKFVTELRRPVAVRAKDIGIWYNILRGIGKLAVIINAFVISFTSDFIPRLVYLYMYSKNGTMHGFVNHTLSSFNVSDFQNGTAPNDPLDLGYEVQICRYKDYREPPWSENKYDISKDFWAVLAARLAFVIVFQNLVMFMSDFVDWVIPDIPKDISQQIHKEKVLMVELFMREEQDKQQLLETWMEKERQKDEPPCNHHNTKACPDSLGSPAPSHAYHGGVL
Sequence of UniProt P48730 (whole entry, looked up): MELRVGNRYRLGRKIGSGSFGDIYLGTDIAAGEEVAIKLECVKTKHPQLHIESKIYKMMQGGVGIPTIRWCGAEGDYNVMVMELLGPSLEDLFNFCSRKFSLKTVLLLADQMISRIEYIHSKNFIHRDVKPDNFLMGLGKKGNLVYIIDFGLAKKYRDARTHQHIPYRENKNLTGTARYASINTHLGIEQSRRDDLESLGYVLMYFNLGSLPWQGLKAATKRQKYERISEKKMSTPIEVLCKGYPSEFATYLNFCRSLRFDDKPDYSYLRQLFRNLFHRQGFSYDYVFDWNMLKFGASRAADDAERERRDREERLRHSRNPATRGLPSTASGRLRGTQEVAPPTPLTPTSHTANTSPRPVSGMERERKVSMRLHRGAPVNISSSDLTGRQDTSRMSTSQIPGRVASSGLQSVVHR
Sequence of UniProt Q96SB4 (whole entry, looked up): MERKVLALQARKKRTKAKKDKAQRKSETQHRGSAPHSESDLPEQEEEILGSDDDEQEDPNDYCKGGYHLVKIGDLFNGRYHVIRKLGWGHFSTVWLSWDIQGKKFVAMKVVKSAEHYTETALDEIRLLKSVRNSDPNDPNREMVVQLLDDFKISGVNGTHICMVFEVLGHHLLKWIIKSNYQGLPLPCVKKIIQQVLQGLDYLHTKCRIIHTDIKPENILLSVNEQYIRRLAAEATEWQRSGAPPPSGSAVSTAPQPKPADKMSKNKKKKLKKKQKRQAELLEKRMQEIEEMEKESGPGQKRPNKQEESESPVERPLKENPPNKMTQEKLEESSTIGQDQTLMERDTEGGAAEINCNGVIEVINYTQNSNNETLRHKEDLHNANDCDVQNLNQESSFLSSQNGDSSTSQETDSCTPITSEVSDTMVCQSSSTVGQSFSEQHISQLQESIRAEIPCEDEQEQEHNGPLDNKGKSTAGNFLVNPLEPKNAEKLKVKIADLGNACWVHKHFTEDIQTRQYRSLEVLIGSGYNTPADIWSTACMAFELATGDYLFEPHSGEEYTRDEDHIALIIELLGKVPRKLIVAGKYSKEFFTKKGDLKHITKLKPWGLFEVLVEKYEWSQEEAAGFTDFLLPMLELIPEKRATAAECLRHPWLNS
Sequence of UniProt P31751 (whole entry, looked up): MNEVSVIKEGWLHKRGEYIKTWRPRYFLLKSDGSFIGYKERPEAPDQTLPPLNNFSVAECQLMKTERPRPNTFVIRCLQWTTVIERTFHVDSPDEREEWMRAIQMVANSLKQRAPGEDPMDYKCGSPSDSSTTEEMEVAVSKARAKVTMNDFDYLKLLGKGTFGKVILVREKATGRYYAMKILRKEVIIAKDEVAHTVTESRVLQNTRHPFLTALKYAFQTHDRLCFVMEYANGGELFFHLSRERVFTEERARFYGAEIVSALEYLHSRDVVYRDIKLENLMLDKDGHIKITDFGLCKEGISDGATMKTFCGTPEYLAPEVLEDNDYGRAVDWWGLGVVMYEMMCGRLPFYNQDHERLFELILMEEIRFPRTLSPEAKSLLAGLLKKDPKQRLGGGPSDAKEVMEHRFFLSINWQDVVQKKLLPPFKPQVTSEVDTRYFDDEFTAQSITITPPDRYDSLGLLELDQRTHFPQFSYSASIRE
Sequence of UniProt P08588 (whole entry, looked up): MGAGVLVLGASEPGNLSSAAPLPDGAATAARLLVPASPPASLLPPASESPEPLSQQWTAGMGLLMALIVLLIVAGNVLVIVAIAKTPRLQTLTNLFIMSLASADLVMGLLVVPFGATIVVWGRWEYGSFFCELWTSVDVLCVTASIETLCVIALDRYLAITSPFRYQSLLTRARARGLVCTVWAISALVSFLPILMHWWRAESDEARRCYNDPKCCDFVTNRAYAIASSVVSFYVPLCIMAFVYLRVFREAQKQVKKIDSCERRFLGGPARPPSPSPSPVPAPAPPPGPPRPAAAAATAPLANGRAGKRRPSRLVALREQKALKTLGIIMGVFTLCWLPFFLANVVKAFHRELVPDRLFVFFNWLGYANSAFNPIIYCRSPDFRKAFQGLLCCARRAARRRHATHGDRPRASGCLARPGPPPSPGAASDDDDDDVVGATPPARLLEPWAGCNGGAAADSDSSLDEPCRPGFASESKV
Sequence of UniProt P36896 (whole entry, looked up): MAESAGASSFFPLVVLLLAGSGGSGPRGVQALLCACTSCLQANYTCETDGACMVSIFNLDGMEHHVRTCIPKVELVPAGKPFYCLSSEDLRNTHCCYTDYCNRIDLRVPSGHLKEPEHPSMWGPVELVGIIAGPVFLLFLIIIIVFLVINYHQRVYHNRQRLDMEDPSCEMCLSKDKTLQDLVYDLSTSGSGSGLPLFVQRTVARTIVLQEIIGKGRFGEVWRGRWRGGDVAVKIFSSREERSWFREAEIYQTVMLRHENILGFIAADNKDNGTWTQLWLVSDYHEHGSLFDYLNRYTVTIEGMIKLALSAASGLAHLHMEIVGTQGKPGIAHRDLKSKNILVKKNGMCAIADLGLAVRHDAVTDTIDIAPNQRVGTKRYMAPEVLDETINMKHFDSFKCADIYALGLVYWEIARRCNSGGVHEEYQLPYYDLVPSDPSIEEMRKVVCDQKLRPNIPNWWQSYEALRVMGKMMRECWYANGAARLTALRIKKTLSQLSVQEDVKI
Sequence of UniProt Q9BWU1 (whole entry, looked up): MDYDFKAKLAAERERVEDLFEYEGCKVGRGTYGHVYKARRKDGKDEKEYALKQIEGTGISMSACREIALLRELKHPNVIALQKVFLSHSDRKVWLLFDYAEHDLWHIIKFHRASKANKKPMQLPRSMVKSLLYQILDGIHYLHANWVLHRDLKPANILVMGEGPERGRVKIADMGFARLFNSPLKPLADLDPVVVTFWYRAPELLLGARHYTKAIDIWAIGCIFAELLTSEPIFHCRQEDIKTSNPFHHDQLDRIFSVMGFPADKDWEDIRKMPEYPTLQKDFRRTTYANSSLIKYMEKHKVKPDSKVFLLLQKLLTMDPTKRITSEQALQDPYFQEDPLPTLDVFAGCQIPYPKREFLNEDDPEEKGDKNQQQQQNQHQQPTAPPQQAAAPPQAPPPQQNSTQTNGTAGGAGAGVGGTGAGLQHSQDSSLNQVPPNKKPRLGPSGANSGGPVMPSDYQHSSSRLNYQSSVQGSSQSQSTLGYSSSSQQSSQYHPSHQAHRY
Sequence of UniProt Q86UX6 (whole entry, looked up): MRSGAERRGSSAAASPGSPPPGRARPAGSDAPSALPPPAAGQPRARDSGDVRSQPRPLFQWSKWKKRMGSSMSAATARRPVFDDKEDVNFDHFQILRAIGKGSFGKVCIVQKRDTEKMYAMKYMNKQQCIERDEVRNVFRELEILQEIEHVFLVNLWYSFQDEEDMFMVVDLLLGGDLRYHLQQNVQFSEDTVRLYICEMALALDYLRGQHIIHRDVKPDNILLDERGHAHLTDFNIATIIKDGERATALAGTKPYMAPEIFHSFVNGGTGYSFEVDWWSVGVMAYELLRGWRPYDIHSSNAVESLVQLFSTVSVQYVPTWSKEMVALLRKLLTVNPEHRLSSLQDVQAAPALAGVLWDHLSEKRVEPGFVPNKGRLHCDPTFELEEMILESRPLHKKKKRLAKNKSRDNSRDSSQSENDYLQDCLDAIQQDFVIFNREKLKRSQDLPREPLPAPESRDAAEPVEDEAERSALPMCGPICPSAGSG

Series 1
Species: human
Sample: microsomes or S9
Tested at: 2 µM
Time: 0.5 h
`C(=C\c1ccccc1)/CNCCCN1CCOCC1` gave a remaining compound of 84.1%.
The remaining compound of `COC(=O)c1ccc2c(c1)nc(-c1ccc(C(C)(C)C)cc1)n2Cc1ccc(F)cc1` is reported as 94.7%.
With `Cc1cc(O)c(C(c2ccco2)c2c(O)cc(C)n(C)c2=O)c(=O)n1C` the remaining compound was 87.7%.

Series 2
Target: Hepatocyte nuclear factor 3-alpha (Foxa1, Mus musculus, UniProt P35582, residues 1-468, full length assumed)
Sequence of UniProt P35582 (whole entry, looked up): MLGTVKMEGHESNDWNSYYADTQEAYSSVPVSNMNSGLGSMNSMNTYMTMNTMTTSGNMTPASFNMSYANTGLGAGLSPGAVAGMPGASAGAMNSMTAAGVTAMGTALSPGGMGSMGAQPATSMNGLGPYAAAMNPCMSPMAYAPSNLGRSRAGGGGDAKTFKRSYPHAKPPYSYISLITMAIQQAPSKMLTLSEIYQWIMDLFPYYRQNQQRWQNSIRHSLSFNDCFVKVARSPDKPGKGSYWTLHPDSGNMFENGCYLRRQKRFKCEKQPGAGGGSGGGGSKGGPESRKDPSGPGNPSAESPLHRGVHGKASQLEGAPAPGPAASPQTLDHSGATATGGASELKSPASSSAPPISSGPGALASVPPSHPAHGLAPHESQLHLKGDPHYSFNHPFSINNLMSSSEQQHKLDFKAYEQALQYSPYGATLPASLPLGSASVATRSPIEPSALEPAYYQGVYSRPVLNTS
Technique: EMSA with sequencing
Form: double-stranded DNA, one strand shown
Sample: in vitro
Tested at: 10 and 20 nM
Notes: whole designed probe, mean of two concentrations, ends assumed
Relative to: negative control set to 0
Reading: higher = stronger binding
Under “normalised bound fraction”, `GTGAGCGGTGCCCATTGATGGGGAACCTGAGGCGCTGCAGGCCCGGCTTCTGGCTGCGGGGGAGCTGTACCCTGAAGCCTCGCCGGAACTCGCGTCTGGGGCCAGCAGGGGGCACTAGAGTCAACAGGGACTGTATGCAAAACCCACTTCCTCCCAGGCCCTCTAGGGGGATGGTCAGGCTTCTGCAGAGATGGGGAGGATCCTTTCCTGGTAAGGGGATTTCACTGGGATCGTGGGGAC` is recorded as 0.013 ratio.
Under “normalised bound fraction”, `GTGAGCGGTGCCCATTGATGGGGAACAAAAATTTTAGTCTGGATTGATGTTAGGAAATACAATATCTAAGCAATTTGATGTTAAGTTCATCTTGACAGCTTTTAAGACAGAAAATATATGTTTACTTAGAAAATCAACAGAAAAAAATTGCTCTGTTTCTTATCTGACATGAGTCAAAACACGGAATTTTTATTTACATTAAGCTGTGAAATAAAACTGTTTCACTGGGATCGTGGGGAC` is recorded as 0.482 ratio.
`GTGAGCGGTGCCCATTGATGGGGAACCAGCCTGCAGTGCGCTCAGTTAAACAATTCCAAATCAAGGAATTTTGTCTGATACAAGGAATTTGGGGTGTGTTTTCCTAACATGCACCCTGGGTAATTTGACTGGGGGGGGGGGCCATTTCCTGACCCAGCTGAAGCCAATATGCATTGCGGCCACAAGGTGGCGCGTCTGGGCCTGGCAAACCCCTGTGCTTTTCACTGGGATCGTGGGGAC`: “normalised bound fraction” 0.0357 ratio.
`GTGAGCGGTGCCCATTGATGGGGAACATCTTCCCCCTCTTCCTTGCCCCACCAGCTCACCTTCCCGGGTATATTGGAGATAGGAAAATAAATAAAGCCGGCATTCGTTAACCCTCTTCTGGCGCAAACTGCACATTGGTCTGGATGAATCATGGTCCTTTGGCGACGCCAGGCTCCGGGAGAGCAAAGCACCGTGTCAGGGCCATGATCCGGGGTGGCCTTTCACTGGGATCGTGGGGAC` — result for “normalised bound fraction”: 0.295 ratio.
`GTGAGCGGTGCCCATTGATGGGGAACAACTAGTTTAACAACAAAAAAATTTTACATTTATTTCCATTTTTATGATTCAACTAGTTAATAGTTTTTCAAAAATATTACTATATCTTTCAAAGTAATCTTAAAAATAATGAAATTTATGTCTGAGATATAAAATCTCAATTGGCTTTATAATAAATATATGCTTATTAATACATGTGGTAGATGTATGCATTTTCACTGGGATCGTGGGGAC` — result for “normalised bound fraction”: 0.111 ratio.
Under “normalised bound fraction”, `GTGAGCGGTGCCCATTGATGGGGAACATCTTCCCCCTCTTCCTTGCCCCACCAGCTCACCTTCCCGGGTTATTTGCAGATAGGAAAATAAATAAAGCCGGCATTCGTTAACCCTCTTCTGGCGCACCTGTTAAGTTGCTCTGGATGAATCATGGTCCTTTGGCGACGCCAGGCTCCGGGAGAGCAAAGCACCGTGTCAGGGCCATGATCCGGGGTGGCCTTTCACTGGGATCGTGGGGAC` is recorded as 0.343 ratio.
`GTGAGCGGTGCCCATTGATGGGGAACATGTGCTAAAAATACAAGACTTGCTTACGCAGAGAGCCGGGAGCTATGTTCCAGTGAGGGTGGAAACAAAAGCCTCAGTATAAGACTGTCAGGTGTTTACACAAGGGTGTGGTTTGCTCATGTGGCAACACGAGGTTGCTGGACTCCACATGCTGAGGCTCAAAGTAGAAATCACTGATCTTATGTCACATATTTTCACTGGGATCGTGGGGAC` — result for “normalised bound fraction”: 0.428 ratio.
`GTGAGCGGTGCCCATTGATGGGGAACCAGCCTGCAGTGCGCTCAGTTAAACAATTCCAAATCAAGGAATTTTGTCTGATACAAGGAATTTGGGGTGTGTTTTCCTAACATGCACCCTGGGTAAATAGACTGCATGGGGGGGGGGCTTCCTGACCCAGCTGAAGCCAATATGCATTGCGGCCACAAGGTGGCGCGTCTGGGCCTGGCAAACCCCTGTGCTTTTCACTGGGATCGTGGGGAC` — result for “normalised bound fraction”: 0.246 ratio.

Series 3
Target: Prothrombin, mature alpha-thrombin (F2, Homo sapiens, UniProt P00734)
Technique: aptamer microarray, sandwich
Form: DNA with 2'F-ANA
Sample: in vitro
Tested at: 200 nM
Notes: whole 15-mer aptamer, many near background
Added: Cy3 exosite-II aptamer, 400 nM
Reading: higher = stronger binding
Oligonucleotide: GGTTGGTGTGGTTGG
For `2'F-ANA at 7 13 14 15`, “mean fluorescence intensity” read 213 a.u.
Under “mean fluorescence intensity”, `2'F-ANA at 1 3 4 6 11 12 13 15` is recorded as 241 a.u.
Under “mean fluorescence intensity”, `2'F-ANA at 1 2 10 13` is recorded as 48.2 a.u.
Under “mean fluorescence intensity”, `2'F-ANA at 2 3 4 5 6 8 9 13` is recorded as 59.7 a.u.
`2'F-ANA at 6 7 8 9 13` — result for “mean fluorescence intensity”: 375 a.u.
`2'F-ANA at 1 6 7 8 9 10 14`: “mean fluorescence intensity” 49.2 a.u.
`2'F-ANA at 4 5 6 9 12 13 15` — result for “mean fluorescence intensity”: 101 a.u.
`2'F-ANA at 2 4 6 7 8 10 12 13`: “mean fluorescence intensity” 88.1 a.u.

Series 4
SMILES: CCC(=N\O)/C(C)=C/c1ccc(F)cc1
Tested at: 1 µM
SRPK1 (Homo sapiens, UniProt Q96SB4); cell-free assay, competition with immobilised ligand — remaining binding: 100%.
The remaining binding was 65% (HASPIN (Homo sapiens, UniProt Q8TF76); cell-free assay, competition with immobilised ligand).
For CSNK1D (Homo sapiens, UniProt P48730); cell-free assay, competition with immobilised ligand: remaining binding read 81%.
For MAP4K2 (Homo sapiens, UniProt Q12851); cell-free assay, competition with immobilised ligand: remaining binding read 97%.
CDK17 (Homo sapiens, UniProt Q00537); cell-free assay, competition with immobilised ligand — remaining binding: 90%.
The remaining binding was 100% (HCK (Homo sapiens, UniProt P08631); cell-free assay, competition with immobilised ligand).
It gave 100% for remaining binding (MAP3K15 (Homo sapiens, UniProt Q6ZN16); cell-free assay, competition with immobilised ligand).
The remaining binding was 79% (CDK19 (Homo sapiens, UniProt Q9BWU1); competition binding).
It gave 88% for remaining binding (AKT2 (Homo sapiens, UniProt P31751); cell-free assay, competition with immobilised ligand).
The remaining binding was 65% (EGFR (Homo sapiens, UniProt P00533, del747-750/T751S); cell-free assay, competition with immobilised ligand).
For STK32C (Homo sapiens, UniProt Q86UX6); cell-free assay, competition with immobilised ligand: remaining binding read 65%.
For MAP3K1 (Homo sapiens, UniProt Q13233); cell-free assay, competition with immobilised ligand: remaining binding read 63%.
For ERN1 (Homo sapiens, UniProt O75460); cell-free assay, competition with immobilised ligand: remaining binding read 77%.
The remaining binding was 77% (ACVR1B (Homo sapiens, UniProt P36896); cell-free assay, competition with immobilised ligand).
For MYLK4 (Homo sapiens, UniProt Q86YV6); cell-free assay, competition with immobilised ligand: remaining binding read 94%.
It gave 100% for remaining binding (MARK4 (Homo sapiens, UniProt Q96L34); cell-free assay, competition with immobilised ligand).

Series 5
SMILES: C=CCc1ccc(O)c(-c2ccc(O)c(CC=C)c2)c1
Read-out: chloride current
Technique: whole-cell voltage clamp
The IC50 was 5.2 µM (Anoctamin-1 (ANO1, Homo sapiens, UniProt Q5XXA6, del476-501/F646A); membrane voltage -60 mV).
It gave 6.56 µM for IC50 (Anoctamin-1 (ANO1, Homo sapiens, UniProt Q5XXA6, del476-501/F803I); inhibitor; 20 mV holding voltage).
For Anoctamin-1 (ANO1, Homo sapiens, UniProt Q5XXA6, del476-501/L548A); membrane voltage -80 mV: IC50 read 7.84 µM.

Mixed results
The IC50 of `CCOC(=O)N1CCN(Cc2cccc(OCC(O)CN3CCOCC3)c2)CC1` (stereo not drawn) is reported as at least 100 µM (Beta-1 adrenergic receptor (ADRB1, Homo sapiens, UniProt P08588); antagonist).

For quick reference, copied from above (series 4):
For ERN1 (Homo sapiens, UniProt O75460); cell-free assay, competition with immobilised ligand: remaining binding read 77%.
It gave 100% for remaining binding (MAP3K15 (Homo sapiens, UniProt Q6ZN16); cell-free assay, competition with immobilised ligand).
SRPK1 (Homo sapiens, UniProt Q96SB4); cell-free assay, competition with immobilised ligand — remaining binding: 100%.
